Experimental data pooled from the literature.
Lines come from different studies, so protocols differ.
Target: Serine/threonine-protein kinase 17A (STK17A, Homo sapiens, UniProt Q9UEE5)

For `COc1cc(Nc2nccc(-c3cnn4nc(OC)ccc34)n2)cc(C(F)(F)F)c1`, the remaining binding was 99% (binding, competition with immobilised ligand; 1 µM).
`CC(C)=CC1OC(C)(C)C2C=C3C(=O)C(Cl)=CC(O)C3C3C(O)C4OC4C(=O)C132` (stereo not drawn) gave a remaining binding of 89% (cell-free assay, competition with immobilised ligand; 10 µM).
`C=CC(=O)N1CCc2ccc(-n3c(=O)ccc4cnc5ccc(-c6cnn(C)c6)cc5c43)cc21` gave a remaining binding of 100% (KINOMEscan; 1 µM; reference: DMSO control).
The inhibition of `NC(=O)[C@@H](O)C[C@H]1CCc2sc3ncnc(O[C@H]4CC[C@H](N5CCOCC5)CC4)c3c21` is reported as 2% (enzyme activity, inhibitor; 10 µM).
`O=C(Cc1ccc(OCc2ccccc2)cc1)NC1(C(=O)O)CCN(C(=O)c2ccc(-c3cccc(Cl)c3)cc2)CC1` — result for “activity vs control”: 137% (enzyme activity, inhibitor; 10 µM).
For `C=CC(=O)N1CCCC(n2c(=O)c3ncccc3n(Cc3ccc(Oc4ccccc4)cc3)c2=O)C1` (stereo not drawn), the remaining binding was 96% (cell-free assay, competition with immobilised ligand; 1 µM).
`CNC(=O)C1CCN(c2cc(C)c(F)cc2NC(=O)c2ccc(-c3cc(O)ccc3C)c(C)c2)CC1` has a remaining binding of 100% (binding, competition with immobilised ligand; 1 µM).
With `O=C=[N][Ru-4]123([n]4c5ccc(O)cc5c5c6c(c7cc(F)c[n+]1c7c54)C(=O)NC6=O)[S+]1CC[S+]2CC[S+]3CC1` (stereo not drawn) the remaining activity was 94% (enzyme activity; 100 nM, human enzyme, added: 10 µM ATP; reference: untreated).
`Nc1ncc(-c2cc(-c3cnn(CC(F)(F)F)c3)ncc2F)nc1C(=O)NC1CNCC(F)C1` (stereo not drawn) gave a remaining activity of 52% (enzyme activity; 1 µM; reference: DMSO control).
With `Cc1ccc(C(=O)Nc2ccc(CN3CCN(C)CC3)c(C(F)(F)F)c2)cc1C#Cc1cnc2cccnn12` the upper asymptote was 6270 (target engagement, NanoBRET; human cells).
The remaining binding of `Cc1ccc(-c2c(/C=C(\C#N)C(=O)NC(C)C)n(CCCO)c3ncnc(N)c23)cc1` is reported as 92% (cell-free assay, competition with immobilised ligand; 1 µM).
`C=CC(=O)N1Cc2nc(-c3cc(-c4cc(Cl)cnc4Cl)c(F)cc3F)n(-c3ccncn3)c2C1` has an inhibition of 1.3% (cell-free assay; 1 µM).
With `O=C(O)CCC(=O)c1cccc(NS(=O)(=O)c2c[nH]c3ncccc23)c1` the remaining activity was 106% (kinase activity, radiometric; 10 µM).
With `CN1CC[C@@H](COc2cnc(C#N)cc2-c2ccn3nc(NC(=O)C4CC4)cc3c2)C1` the inhibition was 16% (enzyme activity, inhibitor; 1 µM).
With `COc1ccc(NC(=O)Nc2ccc3c(c2)C(=O)N(C(C)CO)CC(C)C(CN(C)Cc2ccc4c(c2)OCO4)O3)cc1` (stereo not drawn) the remaining activity was 102% (kinase activity, KinaseProfiler; 0.03 µM, species human; reference: control).
